Assay results gathered from unrelated publications.
Every numbered part comes from another study and shows a few of its results, in no order. Positions count from the first letter of the parent shown.

Series 1 — method: RNA Bind-n-Seq; form: RNA; sample: in vitro; concentration: 365 nM; reference: no-protein control; direction: higher = stronger binding
Target: RNA binding protein fox-1 homolog 2, RRM domain, GST-SBP tag (RBFOX2, Homo sapiens, UniProt O43251-10, residues 100-194)
Notes: natural RNA segment, single round, ends assumed
Target sequence (chain): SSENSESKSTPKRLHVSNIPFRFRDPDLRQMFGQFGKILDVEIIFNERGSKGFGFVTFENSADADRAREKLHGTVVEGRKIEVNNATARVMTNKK
Sequence	RBNS enrichment (R)
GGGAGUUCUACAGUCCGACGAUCUUGGGCUUUCUGUUGAAUGAAUCAACAAACCACAAUACUUCCUGGGACCUUUUGUACUUUAUUUGAACUAUGAGUCUUUAAUUUUUCCUGAUGAUGGUGGCUGUAAUAUGUGGAAUUCUCGGGUGCCAA	0.509
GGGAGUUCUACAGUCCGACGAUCCCUGUAAUCCCAGCUACUCGGGAGGCUGAGGUGGGAGAAUAGCUUGAACCUGGGAGGCAGAGGUUGUGGUGAGCCAAGAUCACGCCACUGCACUCCAGCCUGGGUGACAGUGGAAUUCUCGGGUGCCAA	0.51
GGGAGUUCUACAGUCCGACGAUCGUGUCUGCCUCCACUGCACCCCCAGUCCCUAAAGCAGGGAUCGUGUGUGGUGAGGAACGCUCUCUUCUGGCCUCAAGCUCUUUGCCUCUUUGCCUUCAGCACCCUUGAUGUGGAAUUCUCGGGUGCCAA	0.356
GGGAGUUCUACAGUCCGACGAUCGAAAGAAGAGGCCAGGGACUAGAAGAUGCACCCCUUUCCUCCUGGGAGCCCCACGCUUCAGGAGUAGACUAGAGCCACCUCACUUGUGUUCCGUGGGGUUACAUUUGCUUUGGAAUUCUCGGGUGCCAA	0.486
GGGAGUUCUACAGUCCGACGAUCAGUCACUACAUUAUCUCAGCAGAGAGACUUUAAUUAAACUGAUUUGUUUCCAAUGUCGGGUUCACUUAAAGGAUUUGACUUACCACCAGAGCAUAGAAAAGCAUGCAAGGUGGAAUUCUCGGGUGCCAA	1.04
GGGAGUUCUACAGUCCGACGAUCAUCUGGGCCUGUCUGAACCCCUCGUUCUUCAUGUUUAGGUGAAUAUGAAUAUGUUAAAGCUGGUGGCUCAGCUGGGAGAUUUAUAUGGGUCACUGUGCGAGCUUCCUUAUUGGAAUUCUCGGGUGCCAA	0.781
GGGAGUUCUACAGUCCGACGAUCAUGGGUGAUGUGUGAUCUACCAGUGGCUGGGUUCACCCAUCAGUAAUCAGAGCAAGACAAAUGAGAGCAAAGCCCCAUGUGACUCCUCCUACUGCUGUGUUGUUUCAAACUGGAAUUCUCGGGUGCCAA	0.577
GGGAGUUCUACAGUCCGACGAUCGAUCUCUGAAGUUUAGUAUUUUUGCACUAUGACAAUUGCUAAGACUGGGAUUUUAAGCUAGGAUAUGAUUAUAUUUCCUAUAAAACUAAAACUUUUAUUUCAUAAAUUUUUGGAAUUCUCGGGUGCCAA	0.885
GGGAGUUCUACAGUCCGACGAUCUUGCUGGCCAGGGGUCCCUUGGGGCAGCACGUGGACCCUUCCAAAACUAUACACACUGCCCCCGACUCCAUGCAGUCUUGAGUGCCCUAAGUUGUCAGCCCAACAGAGUUUGGAAUUCUCGGGUGCCAA	0.476
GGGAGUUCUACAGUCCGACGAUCCUCUCUGGGACUUUUAAAGUUUUAUUACUAUUAUUGCUAAUGUAUGAUUAUGGUCAGAGACUUUCAACCCACCCCUUCCUGCCUACCCCUGGCUUUUCCUCACAAAGAAUUGGAAUUCUCGGGUGCCAA	0.556
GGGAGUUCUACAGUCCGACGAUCGUUGGUGCUGUAGGCACCCGCCAGGGAGCAGGGACCCGACUUGCAGACGCAUUGCCCGGUACUAGGAAGGAGUGAGGUGUGUUCCCACCGUACACUUCCCACACGAGCUGUGGAAUUCUCGGGUGCCAA	0.294
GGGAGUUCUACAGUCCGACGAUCACACCUCUGGUUUUUCAAUACCAAUUACAUGGAACUUUUCUGUAAUGGGUACAAUGAAGAAGUUUCUAAAAACACACACAAAGCACAUUGGGCCAACUAUUUAGUAAGCCUGGAAUUCUCGGGUGCCAA	0.549

Series 2 — method: universal PBM; form: double-stranded DNA, one strand shown; sample: in vitro; concentration: 600 nM; direction: higher = stronger binding
Target: Sal-like protein 4, full length isoform A (SALL4, Homo sapiens, UniProt Q9UJQ4, residues 1-1053)
UniProt Q9UJQ4, sequence (whole entry, looked up): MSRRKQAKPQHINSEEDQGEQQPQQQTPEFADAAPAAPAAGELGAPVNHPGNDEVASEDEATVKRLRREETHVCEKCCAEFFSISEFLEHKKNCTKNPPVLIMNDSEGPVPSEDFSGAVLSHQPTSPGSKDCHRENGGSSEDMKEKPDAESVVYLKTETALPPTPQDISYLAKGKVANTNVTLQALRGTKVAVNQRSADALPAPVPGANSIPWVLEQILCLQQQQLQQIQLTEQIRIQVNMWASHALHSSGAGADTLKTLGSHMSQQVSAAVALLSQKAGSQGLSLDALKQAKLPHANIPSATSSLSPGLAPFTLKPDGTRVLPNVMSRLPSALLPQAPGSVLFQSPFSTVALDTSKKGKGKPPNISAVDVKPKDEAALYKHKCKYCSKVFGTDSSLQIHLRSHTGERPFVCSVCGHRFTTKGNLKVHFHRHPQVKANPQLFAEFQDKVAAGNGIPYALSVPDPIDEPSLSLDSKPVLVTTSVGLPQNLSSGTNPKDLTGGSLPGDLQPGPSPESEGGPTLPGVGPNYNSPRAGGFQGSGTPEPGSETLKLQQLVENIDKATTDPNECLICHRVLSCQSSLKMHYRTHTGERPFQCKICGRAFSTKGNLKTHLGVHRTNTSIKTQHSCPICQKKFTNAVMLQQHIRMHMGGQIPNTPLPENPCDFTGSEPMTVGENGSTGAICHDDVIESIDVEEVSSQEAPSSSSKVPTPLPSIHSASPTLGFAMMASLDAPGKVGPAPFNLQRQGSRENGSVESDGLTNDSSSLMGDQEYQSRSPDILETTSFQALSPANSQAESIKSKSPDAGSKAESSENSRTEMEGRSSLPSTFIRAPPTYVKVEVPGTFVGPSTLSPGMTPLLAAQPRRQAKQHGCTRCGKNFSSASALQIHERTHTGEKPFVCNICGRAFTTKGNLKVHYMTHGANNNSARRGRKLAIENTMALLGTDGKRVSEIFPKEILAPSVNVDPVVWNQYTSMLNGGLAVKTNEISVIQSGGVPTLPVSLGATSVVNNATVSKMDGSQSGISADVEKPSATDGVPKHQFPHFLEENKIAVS
Notes: 8-mer, flanks averaged, mean of replicates
Sequence	E-score
ACTCTAAA	0.166
GTCGACAA	-0.201
AAGATGTA	0.218
ATCCGAAG	0.0243
GTATCCAA	-0.0465
CCTCTCCC	-0.207
CATCCGAC	-0.128
ATCGGAGG	-0.0772
GGCTCCAC	-0.277
AAAGAGAC	-0.0047
AGTACGAT	0.194
CACGAGTA	0.0939
ACAGGTGC	-0.151
CAGGGGGC	-0.339
CGAGGACA	-0.237
ATCTAATG	0.128
TCGTAGAA	0.0576
CACAAATC	0.0046
GTGACATA	0.228
TCTAGTCA	0.0586
AGATTGAT	0.0607
ACTCTACG	-0.114
TGCCAGCA	-0.0137
AACGATTA	0.12

Series 3 — method: competition protein-binding microarray; form: double-stranded DNA, one strand shown; sample: in vitro; concentration: 2 µM; added: Pho4 competitor, 0.05 µM; direction: higher = stronger binding
Target: Centromere-binding protein 1, full length, His-tagged (CBF1, Saccharomyces cerevisiae, UniProt P17106, residues 1-351)
UniProt P17106, sequence (whole entry, looked up): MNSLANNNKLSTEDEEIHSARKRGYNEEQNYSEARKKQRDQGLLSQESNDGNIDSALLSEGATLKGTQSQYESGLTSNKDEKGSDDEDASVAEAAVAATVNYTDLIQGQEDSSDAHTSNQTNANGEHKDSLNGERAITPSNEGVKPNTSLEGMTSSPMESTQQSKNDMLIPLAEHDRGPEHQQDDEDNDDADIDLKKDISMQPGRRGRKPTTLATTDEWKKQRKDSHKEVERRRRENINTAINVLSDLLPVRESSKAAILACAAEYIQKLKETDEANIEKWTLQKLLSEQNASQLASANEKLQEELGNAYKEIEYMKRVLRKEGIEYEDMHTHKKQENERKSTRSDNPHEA
Notes: whole 60-bp probe, lowest competitor level
Sequence	fluorescence intensity
TGGATTTTTCCAAAACACGTGTCGGAAACTTATTTTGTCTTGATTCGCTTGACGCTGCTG	2270 a.u.
GCGGTGAAAAGTGCAAATGTGATGACAGCACCGGAAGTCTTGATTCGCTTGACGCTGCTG	66.3 a.u.
GGGACAACGGCTTGCTAGGTGCATTTACTTCATTCAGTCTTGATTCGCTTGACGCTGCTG	60.5 a.u.
GTCGCGTAATTTTCTTGAAACCATCCATTCACCGATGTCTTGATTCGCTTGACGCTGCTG	80.1 a.u.
TCAACCTGGGTTCGTCACGCAAGACTTGAAGATGATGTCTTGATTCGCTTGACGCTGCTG	86.4 a.u.
CATACCCAACCTTTCCACGTGTTTTAAGATATTTGTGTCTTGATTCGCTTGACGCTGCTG	1020 a.u.
AGTAAAAGTCGTCGGCACGGGCCCCAAACGATAGAGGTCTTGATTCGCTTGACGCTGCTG	66.8 a.u.
CATACCCAACCTTGTCACCGAACTTAAGATATTTGTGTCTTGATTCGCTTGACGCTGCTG	80.2 a.u.
AGTGATCTTATCTTCCACATGTCCTTGGCCACTGGCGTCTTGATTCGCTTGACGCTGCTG	77.4 a.u.
AAAGCGGTAATTTGGGTGGTGGGTGCAGATATCTATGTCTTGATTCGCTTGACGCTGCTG	74.7 a.u.
GAGCGCCATTGTACCCACGTGTAACTGGGGCGAAGGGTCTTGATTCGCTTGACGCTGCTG	774 a.u.
ATCCTGAGAAGTTAGCATGTGCTATCGTTGAAGCCAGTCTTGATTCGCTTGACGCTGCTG	148 a.u.
TAATCAATGGGTTTGCATGTGGTAATCAATTGATAAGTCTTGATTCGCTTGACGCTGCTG	115 a.u.
CTTTCCCGATCTTGGTGCGTGGGTGTAGCACATTTGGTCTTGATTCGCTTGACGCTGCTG	86.5 a.u.
GAAAGACGGACATACCGCGTGCGGAGAACTTTTTCAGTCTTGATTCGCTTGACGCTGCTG	75.1 a.u.
CTTCTCGCGGTGGTGCCCGTGGTGATTCCAGAGGCGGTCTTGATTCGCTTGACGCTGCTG	67.9 a.u.
CCGGCGCGGTCGTACATCGTGACGGTCCTGCGCTGGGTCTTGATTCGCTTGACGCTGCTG	81.1 a.u.
GTCTTGTCTCATTGGGAAGTGGGTGTCCCCACTTCAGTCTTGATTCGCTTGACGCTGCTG	90.5 a.u.
CTGCTGCTGGTCTTGGCCGTGACGGGTGATACGAGTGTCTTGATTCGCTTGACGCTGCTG	81 a.u.
AAAGCGGTAATTTGCAATGTGGGTGCAGATATCTATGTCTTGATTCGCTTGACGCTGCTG	77.5 a.u.

Series 4 — target: CCNF, cyclin fold, Cln2 fusion (human); method: yeast growth competition, sequencing; sample: yeast; notes: strong parent motif; reference: not given; direction: higher = stronger binding
Starting sequence: CDC25A docking peptide (human); PPHRRRLLFACSP; partner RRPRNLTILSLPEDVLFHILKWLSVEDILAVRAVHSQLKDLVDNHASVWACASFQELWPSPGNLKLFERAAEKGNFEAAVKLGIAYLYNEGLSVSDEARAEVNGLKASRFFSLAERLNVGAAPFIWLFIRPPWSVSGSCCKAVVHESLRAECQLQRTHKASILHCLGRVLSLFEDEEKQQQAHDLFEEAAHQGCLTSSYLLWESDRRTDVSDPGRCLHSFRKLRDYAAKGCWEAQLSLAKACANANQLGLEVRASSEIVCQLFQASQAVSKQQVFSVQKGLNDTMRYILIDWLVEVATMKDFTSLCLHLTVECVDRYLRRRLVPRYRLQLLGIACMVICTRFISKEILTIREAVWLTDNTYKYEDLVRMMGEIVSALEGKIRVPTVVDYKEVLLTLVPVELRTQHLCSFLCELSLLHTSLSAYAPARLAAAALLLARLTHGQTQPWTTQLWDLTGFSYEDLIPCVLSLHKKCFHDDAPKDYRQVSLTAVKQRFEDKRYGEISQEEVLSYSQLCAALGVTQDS
Change	normalised enrichment score
PPHRRSLLFACSP [R6S]	2.78
PPHRRNLLFACSP [R6N]	2.18
PPHRRRLLFACSF [P13F]	6.44
PPHRKRLLFACSP [R5K]	4.52
PPHRRRLLFACKP [S12K]	6.24
PPHRRRWLFACSP [L7W]	2.7
PPHLRRLLFACSP [R4L]	3.12
PPHRIRLLFACSP [R5I]	2.29
HPHRRRLLFACSP [P1H]	7.67
PPHRRRLLFACNP [S12N]	8.06
PPHRRRLLRACSP [F9R]	2.34
PPHRRKLLFACSP [R6K]	7.97
PPHRRRLLFAASP [C11A]	8.19
PPHRRRLLFAYSP [C11Y]	8.15
PPHRVRLLFACSP [R5V]	2.35

Series 5 — method: DHFR PCA, deep sequencing; sample: yeast; added: (+)-ABA 58 µM; reference: wild-type fitted maximum; direction: higher = stronger binding
Target: ABI1, truncated, D143A, DHFR fusion (Arabidopsis thaliana)
Notes: methotrexate growth selection, single substitutions
Starting sequence: PYL1, truncated, DHFR fusion (Arabidopsis thaliana); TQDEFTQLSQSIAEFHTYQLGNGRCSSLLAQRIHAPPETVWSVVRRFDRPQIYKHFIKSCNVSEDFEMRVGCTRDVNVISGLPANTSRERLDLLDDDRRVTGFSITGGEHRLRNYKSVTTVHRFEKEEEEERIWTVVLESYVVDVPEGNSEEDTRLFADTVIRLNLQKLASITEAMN; partner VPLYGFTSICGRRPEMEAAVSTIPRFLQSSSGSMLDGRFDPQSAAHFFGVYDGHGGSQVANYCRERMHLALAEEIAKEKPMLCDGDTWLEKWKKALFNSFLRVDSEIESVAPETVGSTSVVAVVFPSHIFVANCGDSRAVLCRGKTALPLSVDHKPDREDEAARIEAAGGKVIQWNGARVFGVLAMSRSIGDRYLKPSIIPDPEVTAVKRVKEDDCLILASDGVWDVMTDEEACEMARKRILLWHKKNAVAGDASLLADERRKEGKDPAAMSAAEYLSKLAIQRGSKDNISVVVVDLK
Change	relative binding score
A84S	37.5%
V40Q	-6.48%
L93A	78.6%
G71Y	3.99%
S27P	-2.71%
D144N	63.5%
V136L	85.9%
I105W	-9.56%
Q51T	49.3%
E125F	98.5%
T17L	56.4%
L138N	18.2%
V70G	38.2%
I33E	-23%
C60M	14.7%
Y53V	10.6%
I12P	-0.862%
D95K	17%
L164G	67.4%
E127Y	91.7%
L166G	3.79%
R74A	-3.81%
G71D	26%
D153Y	5.8%

Series 6 — target: UBE2H UBC core domain (UniProt P62256); method: yeast two-hybrid; sample: yeast; notes: mostly zero background; reference: not given; direction: higher = stronger interaction
UniProt P62256, sequence (whole entry, looked up): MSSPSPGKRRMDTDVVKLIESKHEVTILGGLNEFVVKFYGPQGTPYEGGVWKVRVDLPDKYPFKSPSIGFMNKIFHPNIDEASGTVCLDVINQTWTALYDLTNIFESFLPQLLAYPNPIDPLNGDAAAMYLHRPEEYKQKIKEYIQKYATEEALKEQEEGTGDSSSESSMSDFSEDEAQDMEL
B1: ZNRF3 RING domain (UniProt Q9ULT6); chain DTLSSSSTSDCAICLEKYIDGEELRVIPCTHRFHRKCVDPWLLQHHTCPHCRHNIIEQKGNP
B2: TRIM48 RING domain (UniProt Q8IWZ4); chain ISQVFQRELTCPICMNYFIDPVTIDCGHSFCRPCFYLNWQDIPILTQCFECIKTIQQRNLKT
B3: RNF135 RING domain (UniProt Q8IUD6); chain PVWLAEDDLGCIICQGLLDWPATLPCGHSFCRHCLEALWGARDARRWACPTCRQGAAQQPHLR
Molecule	lacZ reporter activity
ALDRLEKLLRCSRCTNILREPVCLGGCEHIFCSNCVSDCIGTGCPVCYTPAWIQDLKI (BARD1 RING domain (UniProt Q99728))	0
B1 (ZNRF3 RING domain)	0
KITELNPHLMCVLCGGYFIDATTIIECLHSFCKTCIVRYLETSKYCPICDVQVHKTRPLL (BMI1 RING domain (UniProt P35226))	0
KEQLEKHNDICAICYQDMKSAVITPCSHFFHAGCLKKWLYVQETCPLCHCHLKNSSQLP (RNF145 RING domain (UniProt Q96MT1))	0
B2 (TRIM48 RING domain)	0
B3 (RNF135 RING domain)	0
NTAPSLTVPECAICLQTCVHPVSLPCKHVFCYLCVKGASWLGKRCALCRQEIPEDFLDK (RNF146 RING domain (UniProt Q9NTX7))	0

For quick reference, copied from above (series 2):
Sequence	E-score
ATCGGAGG	-0.0772
GGCTCCAC	-0.277
AAAGAGAC	-0.0047
AGTACGAT	0.194
CACGAGTA	0.0939
ACAGGTGC	-0.151
CAGGGGGC	-0.339
CGAGGACA	-0.237
ATCTAATG	0.128
